Assay results collected from several papers.
Protocols differ between the studies behind these lines. ± marks the error that the study gave. ≈ marks a conversion by molar mass, not a printed value.

CCOC(=O)C(C)NC(=O)CN1C(=O)S/C(=C\c2ccc(F)cc2)C1=O (centres unmarked) — IC50 (Leishmania major; parasite growth; 24 h, intracellular, amastigote): > 10 µM
CC(=O)[O-].O.O.O.O.[Co+2].[O-]c1ccc(Br)cc1C=NCCN1CCOCC1 — inhibition zone diameter (Mucor indicus; 20 µL of 100 µM per disc): 15 mm
Cc1cc2[nH]c(C(=O)NC3CCCCC3)c(CN3CCOCC3)c2s1 — IC50 (Giardia duodenalis; parasite growth; 48 h): > 10 µM
CCOC(=O)CNC(=O)CN1C(=O)S/C(=C\c2ccc(OC)c(O)c2)C1=O — IC50 (Leishmania major; parasite growth; 72 h, intracellular, amastigote): 9.97 µM
NCC(=O)N[C@@H](Cc1ccccc1)C(=O)N[C@@H](Cc1ccccc1)C(N)=O — activity (Aplysia; feeding network activity, electrophysiology; buccal and cerebral ganglia; concentration not given): inactive
O=C(CN(CCNC(=O)OCC1c2ccccc2-c2ccccc21)C(=O)CCc1cn(Cc2ccccc2)nn1)Nc1ccc(I)cc1 — antibacterial activity (Bacillus subtilis, Staphylococcus aureus; MIC; including MRSA; up to 512 µg/mL): inactive
CSc1ccc(NC(=O)c2[nH]c3cc(C)sc3c2CN(C)C)cc1 — IC50 (Giardia duodenalis; parasite growth; 48 h): > 10 µM
Cc1cc(O)c2c(c1)C(=O)c1cc3oc(=O)cc(-c4ccc(O)cc4)c3c(O)c1C2=O — inhibition zone (Klebsiella aerogenes; microbial growth, disc diffusion; 100 µg/disc): 8 mm
CC/C(=C\c1ccc(OCC(=O)NC(C(=O)N2CCSCC2)c2ccccc2)cc1)[N+](=O)[O-] (centres unmarked) — inhibition (Leishmania donovani; macrophages, intracellular amastigotes; 6.25 µM, 72 h): 73.4%
Fc1ccc2c(c1)c1nc3ccc(Br)cc3c-1cn2Cc1cn(-c2ccccc2I)nn1 — fold change (Giardia duodenalis; UHPLC-Q-TOF-MS, measured: PS(P-20:0/22:6); trophozoites; IC50, 0.2033 h; reference: 0.25% DMSO): -325
CN(C)c1cc(CN2CCc3ccccc3C2)c(O)c2c1C[C@H]1C[C@H]3[C@H](N(C)C)C(O)=C(C(N)=O)C(=O)[C@@]3(O)C(O)=C1C2=O — MIC (Enterococcus faecalis; microbial growth, broth dilution): 0.5 µg/mL (≈ 0.83 µM)
CCC(NC(=O)CN1C(=O)N/C(=C\c2ccc(C)cc2)C1=O)C(=O)OC (centres unmarked) — IC50 (Leishmania donovani; parasite growth, resazurin; promastigote): > 10 µM
Cc1c2c(cc3oc(=O)cc(-c4ccc(O)cc4)c13)C(=O)c1cccc(O)c1C2=O — inhibition zone (Klebsiella aerogenes; microbial growth, disc diffusion; 100 µg/disc): 15 mm
Brc1ccc(-c2c[nH]c(-c3ccccn3)n2)cc1 — worm killing (Schistosoma mansoni; mature male and female worms; 10 µM, 96 h): 0%
CC1(CCCCCCCCCCCCCCOCCCOP(=O)(O)CO[C@H](CO)Cn2ccc(N)nc2=O)COC1 — selectivity index (human alphaherpesvirus 2; HFF, G; reference: CC50 over EC50): > 172
N#CCC(=O)NNC(=S)Nc1ccc(Cl)c(Cl)c1 — mRNA level (Nakaseomyces glabratus; measured: CDR1, CDR2, YOR1; concentration not given, without ketoconazole): no effect
CN(C)c1cc(CNc2ccccc2)c(O)c2c1C[C@H]1C[C@H]3[C@H](N(C)C)C(O)=C(C(N)=O)C(=O)[C@@]3(O)C(O)=C1C2=O — MIC (Enterococcus faecalis; microbial growth, broth dilution): 2 µg/mL (≈ 3.55 µM)
Nc1ncnc2c1ccn2[C@H]1C[C@H](O)[C@@H](CO)O1 — activity (animal trypanosomes; parasite growth; concentration not given, panel of strains): inactive
CC(C)=CCc1cc([C@@H]2CC(=O)c3ccc(O)c(CC=C(C)C)c3O2)c(O)c(CC=C(C)C)c1O — antibacterial activity (Enterococcus faecalis; ATCC 29212; concentration not given): inactive
Cc1cc2[nH]c(C(=O)NCC3CCCO3)c(CN(C)C)c2s1 (centres unmarked) — IC50 (Giardia duodenalis; parasite growth; 48 h): > 10 µM
CCOC(=O)C(NC(=O)CN1C(=O)/C(=C/c2ccc3c(c2)OCO3)SC1=S)C(C)C (centres unmarked) — IC50 (Leishmania major; parasite growth, resazurin; promastigote): > 100 µM
N=C(N)NCCC[C@@H]1NC(=O)[C@H](CCCNC(=N)N)NC(=O)[C@H](CCCNC(=N)N)NC(=O)[C@H](Cc2ccc3ccccc3c2)NC(=O)[C@H](Cc2c[nH]c3ccccc23)NC(=O)[C@H](Cc2ccc3ccccc3c2)NC(=O)[C@H](CCCNC(=N)N)NC1=O — time to growth halt (Escherichia coli; bacterial killing; ATCC BAA-2452; MIC): 4 h
CCOC(=O)C(C)NC(=O)CN1C(=O)N/C(=C\c2ccc(C)cc2)C1=O (centres unmarked) — IC50 (Leishmania major; parasite growth, resazurin; promastigote): > 100 µM
c1ccc(CN2CCOCCOCCN(CCCCCCCCCCN3CCOCCOCCN(CCCCCCCCCCN4CCOCCOCCN(Cc5ccccc5)CCOCCOCC4)CCOCCOCC3)CCOCCOCC2)cc1 — concentration restoring tetracycline activity (Escherichia coli; checkerboard; tetracycline-resistant; added: tetracycline): 2 µM
CCOC(=O)C(NC(=O)CN1C(=O)N/C(=C\c2ccc3c(c2)OCO3)C1=O)C(C)C (centres unmarked) — IC50 (Leishmania major; parasite growth; 24 h, intracellular, amastigote): > 10 µM
CN(C)c1cc(CNCc2ccco2)c(O)c2c1C[C@H]1C[C@H]3[C@H](N(C)C)C(O)=C(C(N)=O)C(=O)[C@@]3(O)C(O)=C1C2=O — MIC (Enterococcus faecalis; JH2-2(pMV158), Tet L efflux): 1 µg/mL (≈ 1.76 µM)
Cc1ccc(NC(=O)c2[nH]c3cc(C)sc3c2CN(C)C)cc1 — IC50 (Giardia duodenalis; parasite growth; 48 h): > 10 µM
CCOC(=O)C(CC)NC(=O)CN1C(=O)S/C(=C\c2ccc(OC)cc2)C1=O (centres unmarked) — IC50 (Leishmania donovani; parasite growth; 24 h, intracellular, amastigote): > 10 µM
O=S(=O)(O)CCCCCCCCCCCSC[C@H]1O[C@@H]2O[C@H]3[C@H](O)[C@@H](O)[C@@H](O[C@H]4[C@H](O)[C@@H](O)[C@@H](O[C@H]5[C@H](O)[C@@H](O)[C@@H](O[C@H]6[C@H](O)[C@@H](O)[C@@H](O[C@H]7[C@H](O)[C@@H](O)[C@@H](O[C@H]8[C@H](O)[C@@H](O)[C@@H](O[C@H]1[C@H](O)[C@H]2O)O[C@@H]8CSCCCCCCCCCCCS(=O)(=O)O)O[C@@H]7CSCCCCCCCCCCCS(=O)(=O)O)O[C@@H]6CSCCCCCCCCCCCS(=O)(=O)O)O[C@@H]5CSCCCCCCCCCCCS(=O)(=O)O)O[C@@H]4CSCCCCCCCCCCCS(=O)(=O)O)O[C@@H]3CSCCCCCCCCCCCS(=O)(=O)O — AUC of mean lesion score (human alphaherpesvirus 2; 333, mouse, intravaginal HSV-2 infection; intravaginal, 0.03 mg per mouse, HEC gel, days 4 to 10 post-infection; direction not given): 39.7 ± 25.1
